Assay results collected from several papers.
Lines come from different studies, so protocols differ. ± gives the spread as reported.
UniProt O60656, sequence (whole entry, looked up): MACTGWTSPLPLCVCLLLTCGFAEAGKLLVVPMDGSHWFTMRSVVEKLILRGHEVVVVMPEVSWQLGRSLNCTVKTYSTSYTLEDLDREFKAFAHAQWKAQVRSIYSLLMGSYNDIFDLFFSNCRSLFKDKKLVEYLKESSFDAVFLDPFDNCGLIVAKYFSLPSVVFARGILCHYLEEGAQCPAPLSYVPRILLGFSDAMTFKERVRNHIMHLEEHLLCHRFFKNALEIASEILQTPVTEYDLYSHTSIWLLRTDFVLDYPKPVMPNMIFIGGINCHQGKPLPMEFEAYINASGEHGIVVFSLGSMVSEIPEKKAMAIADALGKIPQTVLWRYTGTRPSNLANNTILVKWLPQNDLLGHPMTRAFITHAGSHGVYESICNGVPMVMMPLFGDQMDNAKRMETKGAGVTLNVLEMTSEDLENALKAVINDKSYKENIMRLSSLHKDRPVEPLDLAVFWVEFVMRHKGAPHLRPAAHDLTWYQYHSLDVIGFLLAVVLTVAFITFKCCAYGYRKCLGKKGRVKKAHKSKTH

For `pneumocandin B0`, the MIC was 3.2 µg/mL (Candida glabrata; broth microdilution, resazurin; ATCC 2001; 24 h, 35 °C).
For `EVEPSDTIENVKAKIQ`, the MIC was over 100 µM (Bacillus megaterium; peptide, 899, Luria broth; overnight, 37 °C).
With O[C@@](Cn1cnnn1)(c1ccc(F)cc1F)C(F)(F)c1ccc(-c2ccc(OCC(F)(F)F)cc2)cn1 the MIC was 0.06 µg/mL (Acanthamoeba polyphaga; cell growth, resazurin; 96 h, 28 °C).
`pneumocandin K` has an MIC of 12.8 µg/mL (Candida parapsilosis; broth microdilution, resazurin; ATCC 90018; 24 h, 35 °C).
The MIC of CN1CC(O)=C(C(=O)NC(C(=O)NC2C(=O)N3C2SC(C)(C)C3C(=O)O)c2ccccc2)C1=O (stereo not shown) is reported as 50 µg/mL (Escherichia coli; broth microdilution; BW25113, Mueller-Hinton broth; with: CCCP 50 µg/mL).
For CC1(C)S[C@@H]2[C@H](NC(=O)[C@H](N)c3ccccc3)C(=O)N2[C@H]1C(=O)O, the MIC was 0.62 ± 0.6 µg/mL (Lactiplantibacillus plantarum subsp. plantarum; broth microdilution; ATCC 10241, MRS medium; 24 h, 37 °C).
For `plantazolicin`, the MIC was over 48 µM (Bacillus megaterium; 7A1; 12 h, 37 °C).
The MIC of CC(C)(C)OCC1NC(=O)C(C(=O)NC(C(=O)NC2C(=O)N3C2SC(C)(C)C3C(=O)O)c2ccccc2)=C1O (stereo not shown) is reported as 50 µg/mL (Escherichia coli; broth microdilution; BW25113, Mueller-Hinton broth; 18 h, without clavulanic acid).
With CCOC(=O)c1c(N)csc1-c1cn(-c2ccccc2)nc1-c1ccc(C)cc1 the MIC was 0.125 ± 0.2 µg/mL (Klebsiella pneumoniae; broth microdilution; clinical urinary isolate; compound gamma-irradiated 15 kGy).
With CC1(C)CC[C@]2(C(=O)O)CC[C@]3(C)C(=CC[C@@H]4[C@@]5(C)CC[C@H](O)C(C)(C)[C@@H]5CC[C@]43C)[C@@H]2C1 the MIC was 500 µg/mL (Lodderomyces parapsilosis; microbial growth, broth dilution; ATCC22019; 48 h).
CC1(C)SC2C(NC(=O)C(NC(=O)C3=C(O)C(Cc4ccccc4)NC3=O)c3ccccc3)C(=O)N2C1C(=O)O (stereo not shown) has an MIC of 50 µg/mL (Acinetobacter baumannii; microbial growth, broth dilution; ATCC19606).
With N#CC(=Cc1ccccc1O)C1=NC(=O)C(=Cc2cn(-c3ccccc3)nc2-c2ccccc2)S1 the MIC was 0.48 µg/mL (Acinetobacter baumannii; microbial growth, broth dilution).
The MIC of CC1(C)SC2C(NC(=O)C(NC(=O)C3=C(O)C(Cc4ccc([N+](=O)[O-])cc4)NC3=O)c3ccccc3)C(=O)N2C1C(=O)O (stereo not shown) is reported as 100 µg/mL (Escherichia coli; broth microdilution; BW25113, Mueller-Hinton broth).
`UGT1A9 (Homo sapiens, UniProt O60656)` gave a Vmax of 7.36e-05 µmol/min/mg (O=C1[C@H](CC[C@H](O)c2ccc(F)cc2)[C@@H](c2ccc(O)cc2)N1c1ccc(F)cc1; steady-state kinetics; pH 7.4, 37 °C).
For CC1(C)SC2C(NC(=O)C(NC(=O)C3=C(O)C4(CC4)NC3=O)c3ccccc3)C(=O)N2C1C(=O)O (stereo not shown), the MIC was 25 µg/mL (Acinetobacter baumannii; microbial growth, broth dilution; ATCC19606).
The MIC of C[C@@H](c1ncncc1F)[C@](O)(Cn1cncn1)c1ccc(F)cc1F is reported as 0.25 µg/mL (Acanthamoeba polyphaga; cell growth, resazurin; 96 h, 28 °C).
C=C(C)[C@@H]1CC[C@]2(C)CC[C@]3(C)[C@H](CC[C@@H]4[C@@]5(C)CC[C@H](O)C(C)(C)[C@@H]5CC[C@]43C)[C@@H]12 gave an MIC of 500 µg/mL (Lodderomyces parapsilosis; microbial growth, broth dilution; ATCC22019; 48 h).
For CC1(C)SC2C(NC(=O)C(NC(=O)C3=C(O)CN(c4ccccc4)C3=O)c3ccccc3)C(=O)N2C1C(=O)O (stereo not shown), the MIC was 25 µg/mL (Acinetobacter baumannii; microbial growth, broth dilution; ATCC19606).
`pneumocandin A0` gave an MIC of 1.6 µg/mL (Candida glabrata; broth microdilution, resazurin; ATCC 2001; 24 h, 35 °C).
The MIC of CC1NC(=O)C(C(=O)NC(C(=O)NC2C(=O)N3C2SC(C)(C)C3C(=O)O)c2ccccc2)=C1O (stereo not shown) is reported as 100 µg/mL (Escherichia coli; broth microdilution; BW25113, Mueller-Hinton broth; with: 2,2'-bipyridyl 30 µg/mL).
For `pneumocandin I`, the MIC was 0.1 µg/mL (Candida glabrata; broth microdilution, resazurin; ATCC 2001; 24 h, 35 °C).
For `YGRKKRRQRRR (C-amide)`, the MIC was 12.5 µM (Candida parapsilosis; peptide, ATCC 22019; 24 h, 35 °C, dark).

Some of these lines once more:
The MIC of CC1NC(=O)C(C(=O)NC(C(=O)NC2C(=O)N3C2SC(C)(C)C3C(=O)O)c2ccccc2)=C1O (stereo not shown) is reported as 100 µg/mL (Escherichia coli; broth microdilution; BW25113, Mueller-Hinton broth; with: 2,2'-bipyridyl 30 µg/mL).
For `pneumocandin I`, the MIC was 0.1 µg/mL (Candida glabrata; broth microdilution, resazurin; ATCC 2001; 24 h, 35 °C).
